Measured values pooled from the literature.
Parts stem from different laboratories: compare values within a part only.

Block 1
Molecule: deucravacitinib
Technique: multiple ascending dose
Host: healthy human
Route: oral
For 2 mg twice daily: “subjects with rash” read 0%.
For all doses pooled: “subjects with rash” read 20%.
12 mg once daily — “subjects with rash”: 44.4%.

Single results of other studies
For `chicoric acid`, “Papp basolateral to apical” read “no effect” (IPEC-J2 monolayer; added: monensin 50 µM; relative to: without inhibitor).
`maraviroc` has a C12 of 63.1 ng/mL (black CYP3A5 intermediate metabolizers, plasma; 300 mg twice daily).
`semaglutide` — result for “participants with adverse events”: 75% (item: recovered or resolved; human, safety analysis set; concentration not given, 32 weeks, run-in).

Excerpt of the above (block 1):
12 mg once daily — “subjects with rash”: 44.4%.
